Published values from different studies.
A part holds a random share of what one study measured. Positions count from the first letter of the parent shown.

Block 1 — method: protein-binding microarray; form: double-stranded DNA, one strand shown; matrix: in vitro; concentration: 250 nM; setting: 60-bp whole probe; added: salmon DNA 0.4 mg/ml; reference: random background probes; direction: higher = stronger binding; constant ends, left off below: GCCTAGCAC … GTCTTGATTCGCTTGACGCTGCTG
Target: Interferon regulatory factor 5, full length, phosphomimetic (IRF5, Homo sapiens, UniProt Q13568-2, residues 1-514, K96S/S451D/S453D/S456D/S462D)
For `GACGAACTCGGGACTGGAGACGTGCTA`, the log fluorescence was -0.172 z-score.
The log fluorescence of `CCACCACCAACACCAGTCATGTGCTAG` is reported as -0.102 z-score.
`TTTGTCATCTATAATGGATATGTGCTA` gave a log fluorescence of 0.572 z-score.
`TTAGGTTTCGGTTCCAGTTAGTGCTAG` gave a log fluorescence of 10.6 z-score.
With `TCACATTTGGAAAATGTAACTGTGCTA` the log fluorescence was 0.391 z-score.
With `TCATTTCCCAAGTTTATAACTGTGCTA` the log fluorescence was 0.58 z-score.
`GACGAACTGGGGAATCGAGACGTGCTA` has a log fluorescence of -0.436 z-score.
With `TTAGGACTGGCCTTTCGGTTAGTGCTA` the log fluorescence was 5.19 z-score.
For `GACGGTTTCCTACTGGTGACGTGCTAG`, the log fluorescence was 0.427 z-score.
`CCAGACCCTGATCCATGCATGTGCTAG` has a log fluorescence of -0.833 z-score.
For `AACACTCTTCTTTTGCTAATGTGCTAG`, the log fluorescence was 0.999 z-score.
`TTAGGTCTCGTTCTCCTTTAGTGCTAG` has a log fluorescence of 0.416 z-score.
The log fluorescence of `AGATTTTTTTTCCTAATTGAGTGCTAG` is reported as 0.8 z-score.
`GACGGACTGGGTTTAGGGACGTGCTAG` gave a log fluorescence of -0.573 z-score.
`CCCAGGACCCTGGAACTGGCGTGCTAG` gave a log fluorescence of -0.659 z-score.
The log fluorescence of `TCATTTTTTTTTTCATCATTGTGCTAG` is reported as 1.64 z-score.
The log fluorescence of `TCAGAACTGGGGTTTCGATTAGTGCTA` is reported as 5.64 z-score.
For `TCACATCTGATTTCTCAAACTGTGCTA`, the log fluorescence was 0.798 z-score.

Block 2 — method: DHFR PCA, deep sequencing; matrix: yeast; added: (+)-ABA 0.39 µM; reference: wild-type fitted maximum; direction: higher = stronger binding
Target: ABI1, truncated, D143A, DHFR fusion (Arabidopsis thaliana)
Setting: methotrexate growth selection, single substitutions
Starting sequence: PYL1, truncated, DHFR fusion (Arabidopsis thaliana); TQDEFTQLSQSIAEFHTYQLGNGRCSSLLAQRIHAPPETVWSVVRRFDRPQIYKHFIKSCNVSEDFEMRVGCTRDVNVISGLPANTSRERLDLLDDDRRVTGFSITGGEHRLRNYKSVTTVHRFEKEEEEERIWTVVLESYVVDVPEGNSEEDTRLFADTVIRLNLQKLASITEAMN; partner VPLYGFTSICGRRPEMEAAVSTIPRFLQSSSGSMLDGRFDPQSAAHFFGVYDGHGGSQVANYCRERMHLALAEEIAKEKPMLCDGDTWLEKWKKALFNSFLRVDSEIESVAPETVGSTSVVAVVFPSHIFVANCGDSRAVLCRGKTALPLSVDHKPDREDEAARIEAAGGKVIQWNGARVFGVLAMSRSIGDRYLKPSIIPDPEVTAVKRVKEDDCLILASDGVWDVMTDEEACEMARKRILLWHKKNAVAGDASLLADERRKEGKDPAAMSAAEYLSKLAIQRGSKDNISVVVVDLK
`T39R`: “relative binding score” 39.2%.
`V121N` — result for “relative binding score”: -7.81%.
`H55A`: “relative binding score” 72.9%.
`S87P` — result for “relative binding score”: 13.8%.
`V43Q`: “relative binding score” -9.44%.
`I12F` — result for “relative binding score”: 2.42%.
Under “relative binding score”, `S26A` is recorded as 31.8%.
`A158L` — result for “relative binding score”: 51%.
`E152R` — result for “relative binding score”: 10.2%.
`L169D`: “relative binding score” -13.8%.
For `G102E`, “relative binding score” read 0.0865%.
`D92N`: “relative binding score” 10.7%.
`D96V` — result for “relative binding score”: -0.668%.
`L29S` — result for “relative binding score”: 3.18%.
For `E130F`, “relative binding score” read 20.5%.
Under “relative binding score”, `I172E` is recorded as -3.49%.
Under “relative binding score”, `W41E` is recorded as -3.97%.
Under “relative binding score”, `A30I` is recorded as 30.6%.
`V40D` — result for “relative binding score”: -1.58%.
`L169E` — result for “relative binding score”: -0.967%.
Under “relative binding score”, `T86V` is recorded as 42.2%.
`N165G`: “relative binding score” 2.52%.
Under “relative binding score”, `F56V` is recorded as -3.06%.
`Y18M`: “relative binding score” 0.792%.
For `R132G`, “relative binding score” read 72.5%.

Block 3 — method: RNA Bind-n-Seq; form: RNA; matrix: in vitro; concentration: 1 µM; setting: whole 134-nt RNA, ends assumed; added: 150 mM KCl; reference: input library; direction: higher = stronger binding
Target: Ras GTPase-activating protein-binding protein 1, RRM domain (G3BP1, Homo sapiens, UniProt Q13283)
Chain of UniProt Q13283 (whole entry, looked up): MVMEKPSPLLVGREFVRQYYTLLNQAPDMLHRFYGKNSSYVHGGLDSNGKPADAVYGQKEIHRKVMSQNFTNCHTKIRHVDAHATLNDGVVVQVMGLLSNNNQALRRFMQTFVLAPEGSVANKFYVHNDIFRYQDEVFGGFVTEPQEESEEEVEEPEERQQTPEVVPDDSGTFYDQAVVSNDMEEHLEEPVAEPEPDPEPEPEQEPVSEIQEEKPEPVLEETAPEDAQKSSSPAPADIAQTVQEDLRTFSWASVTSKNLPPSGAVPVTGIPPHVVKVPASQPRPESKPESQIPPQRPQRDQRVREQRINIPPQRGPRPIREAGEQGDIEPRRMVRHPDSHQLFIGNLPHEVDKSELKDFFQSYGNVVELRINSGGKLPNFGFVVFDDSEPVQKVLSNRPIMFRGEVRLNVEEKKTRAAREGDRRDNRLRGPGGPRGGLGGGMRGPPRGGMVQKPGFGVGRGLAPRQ
`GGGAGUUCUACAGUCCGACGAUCCACAGACAACACGCACCCACACCGACACAGAGGGAAGGGGUUGGGAUGGGGACAGGGUGCACAGCAGGGCGGGGUAGGACCCCAGCCCCUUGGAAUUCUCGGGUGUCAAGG` gave a log2 enrichment of -0.149.
With `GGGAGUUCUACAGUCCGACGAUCUGUGCUACACAUCGUAUGUACCGAAUCGGGGAAAAAGGGGAAAAAAAGGGGUUUUUUUGGGGAAAGUAUUAUGUUACGCCGUUCGGAUCUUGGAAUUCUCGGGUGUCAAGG` the log2 enrichment was 1.38.
`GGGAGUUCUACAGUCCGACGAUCCUCAAGUCCUGUGCUACACAUCGUAUGUACCGAAUCGGUGGUUUUUUUGGUGGAAAGUAUUAUGUUACGCCGUUCGGAUCUGCACUUCCAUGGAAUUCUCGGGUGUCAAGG` has a log2 enrichment of -0.218.
With `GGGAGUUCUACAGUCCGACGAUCACCAUGCAGGUGGGCAUCUUUGGGAAGUGGGGCAGGGGGGGGAUAGGGAGGGGGGUAACACUUUGGGAACAGGUGGUCCCAGGUCGUUUCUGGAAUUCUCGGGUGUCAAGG` the log2 enrichment was -0.628.
`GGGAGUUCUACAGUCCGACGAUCAGUCCUGUGCUACACAUCGUAUGUACCGAAUCGGGUUUUUGGGUUUUUGGUUUUUGGAAAGUAUUAUGUUACGCCGUUCGGAUCUGCACUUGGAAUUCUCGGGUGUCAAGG` gave a log2 enrichment of -0.228.
`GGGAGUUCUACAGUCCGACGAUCUGGAUGGACACCAUUAUCGUCGUGUGGCACGGGUUGACCUAAGGAAGAAGACAGAGACUUUCUCCACAAGAAGGGUUAAGUCUGGGCUGUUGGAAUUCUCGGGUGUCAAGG` gave a log2 enrichment of -0.0729.
The log2 enrichment of `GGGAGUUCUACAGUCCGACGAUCCACAGACAACACGCACCCACACAGACACAGAGGGAAGGGGUUGGGAUGGGGACAGGGUGCACAAAAGGGCGGGGUAGGACCCCAGCCCCUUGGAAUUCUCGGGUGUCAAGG` is reported as -0.0932.
For `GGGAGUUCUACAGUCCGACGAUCCACAGACAACACGCACCCACACAGACACAGAAGGAAGGGGUUGGGAUGGGGACAGGGUGCACAGCAGGGCGGGGUAGGACCCCAGCCCCUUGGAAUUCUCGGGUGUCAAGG`, the log2 enrichment was 0.056.
With `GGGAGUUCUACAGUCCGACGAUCGUCCUGUGCUACACAUCGUAUGUACCGAAUCGGGCCCCCGGCCCCCGGGGCCCCCGGGGAAAGUAUUAUGUUACGCCGUUCGGAUCUGCAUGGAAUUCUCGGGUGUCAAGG` the log2 enrichment was -0.688.

Block 4 — method: RNA Bind-n-Seq; form: RNA; matrix: in vitro; concentration: 365 nM; reference: no-protein control; direction: higher = stronger binding
Target: RNA binding protein fox-1 homolog 2, RRM domain, GST-SBP tag (RBFOX2, Homo sapiens, UniProt O43251-10, residues 100-194)
Setting: natural RNA segment, single round, ends assumed
Construct (chain): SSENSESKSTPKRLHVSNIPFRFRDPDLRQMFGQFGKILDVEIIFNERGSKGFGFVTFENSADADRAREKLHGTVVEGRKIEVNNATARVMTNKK
`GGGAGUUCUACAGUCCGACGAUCGCGUGUUUGCCUGUCCUGAGGUGCCAGGCCUGCAGAGAGUGGACUCUGGUGGGUGCUUCCUUCCUCUGCUGCCUAACUGAGUCUGGCACAGGCUUUCUGCCUUGCCAUGAUGGAAUUCUCGGGUGCCAA` — result for “RBNS enrichment (R)”: 0.362.
`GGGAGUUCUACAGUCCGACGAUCCAAGCACUUGUGGGUUUUUGUUUUGUUUUUCAUUCAGUCUUACGAAUACUUUUGCCCUUUGAUUAAAGACUCCAGUUAAAAAAAAUUUUAAUGAAGAAAGUGGAAAACAAUGGAAUUCUCGGGUGCCAA` — result for “RBNS enrichment (R)”: 0.992.
Under “RBNS enrichment (R)”, `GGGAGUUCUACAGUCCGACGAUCAGAAAGAGCUCAAUUAUAGUAUUAACACCUUAAAGCCAAAACAUUUGUUCAACACAAACUACCAUCACACCUCUGACUUGAUAUUAUCAUGAGAAUGUGGAUGUACAAGUUGGAAUUCUCGGGUGCCAA` is recorded as 0.762.
`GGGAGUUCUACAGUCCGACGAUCUGGCACUAGUUCAGUUUAUAUCCCUCUCAUAAUAUGGCAGUUCAUUAAAAUACAAAGCAGUAAAAUGUCAUUUGCUGUACGAUUAUUAACUAUAAAUCUGGCUAUUUCUUUGGAAUUCUCGGGUGCCAA`: “RBNS enrichment (R)” 0.411.
`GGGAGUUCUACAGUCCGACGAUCUCUUAUUAGGAUGAUUUUCUAUUAUUAGGUCAAAAAGCUCUACCCAGGCAACAGACACAAUCUGUGCUGAUUAAACUGUCAGCUGGAUACCAGACUUUUAGGGAGACUGGUGGAAUUCUCGGGUGCCAA` — result for “RBNS enrichment (R)”: 0.19.
`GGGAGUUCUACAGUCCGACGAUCUUUUGUACAGCUUUGUAAAUUCUUAACAUUUUUAUAUUGCCAUGUUUAUUUUGUUUGGGUAAUUUGGUUCAUUAAGUACAUAGCUAAGGUAAUGAACAUCUUUUUCAGUAUGGAAUUCUCGGGUGCCAA`: “RBNS enrichment (R)” 1.29.
For `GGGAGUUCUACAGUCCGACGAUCCCUCCCUGCCUGUUCCUGCCUCCUGCACCCUCCCCAGCACCUGCCACACUGACUAUGUCUUUAGGAUUUUAAGUUUAAGUUGUAGCUGCAGAUGGGGGCCUGUGGCUCCCUGGAAUUCUCGGGUGCCAA`, “RBNS enrichment (R)” read 1.11.
`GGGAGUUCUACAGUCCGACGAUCAAGAAAGAGAUAAGGGACGCUACCUUGCUUUUCUGGCACAGGAAGCACAUGAUAAAGCAUGCUCAGAUGAGCUGGAACAGAUAUAGCUACCUGGUUCGUGUAAAUAAGAAUGGAAUUCUCGGGUGCCAA`: “RBNS enrichment (R)” 3.17.

Repeated from above (block 2):
`E152R` — result for “relative binding score”: 10.2%.
`L169D`: “relative binding score” -13.8%.
For `G102E`, “relative binding score” read 0.0865%.
`D92N`: “relative binding score” 10.7%.
`D96V` — result for “relative binding score”: -0.668%.
`L29S` — result for “relative binding score”: 3.18%.
For `E130F`, “relative binding score” read 20.5%.
